Measured values gathered from unrelated publications.
Each line is one published result; not all experiments were run side by side. Values joined by “and” are separate records of one study, mostly repeats; a detail may differ. ± marks the error that the study gave.
CDC25B: M-phase inducer phosphatase 2 (CDC25B, Homo sapiens, UniProt P30305)
Ectonucleoside triphosphate diphosphohydrolase 1: Ectonucleoside triphosphate diphosphohydrolase 1 (Homo sapiens, UniProt P49961)
KDM1A: Lysine-specific histone demethylase 1A (KDM1A, Homo sapiens, UniProt O60341)
CACNA1H: Voltage-dependent T-type calcium channel subunit alpha-1H (CACNA1H, Homo sapiens, UniProt O95180)
Si: Sucrase-isomaltase, intestinal (Si, Rattus norvegicus, UniProt P23739)

C[Si]1(C[C@H](CN)CC(=O)O)CCCC1 — inhibition (Voltage-dependent calcium channel subunit alpha-2/delta-1 (Rattus norvegicus, UniProt P54290); [3H]gabapentin binding; rat cerebral cortex membranes; 6.25 µM, together with: [3H]gabapentin 20 nM): 68%
O=C1N[C@@H](CO)C[C@@H](O)c2ccccc21 (relative stereo) — inhibition (Poly [ADP-ribose] polymerase 1 (PARP1, Homo sapiens, UniProt P09874); enzyme activity, inhibitor; 10 µM): 0%
CCCCCCCCSc1nc(N)c2c(F)c(C#N)c(F)c(Cl)c2n1 — inhibition (CDC25B; enzyme activity, inhibitor, fluorescence; 20 µg/mL): 97.3%
O=C(Nc1ccc(Cl)cc1)c1cccc(S(=O)(=O)NC2CC2)c1 — inhibition (Ectonucleoside triphosphate diphosphohydrolase 1; enzyme activity, inhibitor, absorbance; 100 µM): 5%
Cc1ccc(Nc2nc(SCc3cn(CC(=O)NC(=O)Nc4ccccn4)nn3)nc(-c3ccc(C)cc3)c2C#N)cc1 — inhibition (KDM1A; enzyme activity, inhibitor, fluorescence; 1 µM): 94.8%
CC(C)(C)CCN1C[C@@H]2[C@@H](CNC(=O)c3cc(Cl)cc(Cl)c3)[C@@H]2C1.Cl — inhibition (CACNA1H; peak calcium current, whole-cell patch clamp; HEK-293T transfected; 0.1 µM): ~64%
COCCSc1nc(N)c2c(F)c(F)c(C#N)c(F)c2n1 — inhibition (CDC25B; enzyme activity, inhibitor, fluorescence; 20 µg/mL): 78%
O=C(Nc1ccccc1O)c1ccc(-c2ccc(Cl)cc2Cl)o1 — inhibition (Heat shock protein 90, N-terminal domain (Plasmodium falciparum, UniProt Q8IC05); ligand displacement, FP; 10 µM): 32%
COc1ccc([C@H]2Cc3c(cccc3C(F)(F)F)N(CC[N+](C)(C)C)C(=O)[C@H]2C)cc1 — inhibition (Voltage-dependent L-type calcium channel subunit alpha-1C (CACNA1C, Oryctolagus cuniculus, UniProt P15381); barium current, blocker, whole-cell patch clamp; transfected tsA201; 300 µM, extracellular tonic block): 43 ± 3%
N#Cc1c(F)c(F)c2nc(SCc3ccc(Cl)c(Cl)c3)nc(N)c2c1F — inhibition (CDC25B; enzyme activity, inhibitor, fluorescence; 20 µg/mL): 99.6%
OC[C@H]1O[C@H](n2cc(COc3ccc(OCc4cn([C@H]5O[C@H](CO)[C@@H](O)[C@H](O)[C@H]5O)nn4)cc3)nn2)[C@H](O)[C@@H](O)[C@@H]1O — inhibition (Lysosomal alpha-glucosidase (GAA, Homo sapiens, UniProt P10253); enzyme activity, inhibitor, fluorescence; 1.43 mM, pH 4, lysate): 87% and > 66%
CC1CC(=O)c2c(OCC(=O)N3CCC(C(=O)Nc4ccccc4)CC3)ccc(Cl)c21 (stereo not shown) — inhibition (Trypanothione synthetase (Trypanosoma cruzi, UniProt Q9GT49); enzyme activity, inhibitor, absorbance; 25 µM): 8.8%
O=C(CS(=O)(=O)Cc1ccco1)C12CC3CC(CC(C3)C1)C2 — inhibition (11-beta-hydroxysteroid dehydrogenase type 2 (HSD11B2, Homo sapiens, UniProt P80365); cells; 10 µM): inactive
COc1ccc(C(=O)N(O)Cc2ccccc2)cc1 — inhibition (9-cis-epoxycarotenoid dioxygenase NCED1, chloroplastic (NCED1, Solanum lycopersicum, UniProt O24023); enzyme activity; Escherichia coli extract; 100 µM, together with: 9′-cis-neoxanthin): no inhibition
O=C(O[C@@H]1Cc2c(O)cc(O)cc2O[C@@H]1c1ccc(O)c(O)c1)c1cc(O)c(O)c(O)c1 — inhibition (Si; enzyme activity, inhibitor; rat intestinal brush border vesicles; 10 µM): 61.9%
CCCCCCCCCCCCCCCC(=O)N[C@@H](CCCCN)C(=O)N[C@@H](CCCCN)C(=O)N[C@@H](CO)C(=O)N[C@@H](CCCNC(=N)N)C(=O)N[C@@H](C)C(=O)N[C@@H](CC(C)C)C(=O)N[C@@H](Cc1ccccc1)C(N)=O — inhibition (Proteinase-activated receptor 1 (F2R, Homo sapiens, UniProt P25116); platelet aggregation, light transmittance aggregometry; human, platelet-rich plasma ex vivo; 0.5 mg/kg, 24 h or discharge, together with: SFLLRN 5 µM; reference: baseline): 61%
O=c1c(/C=N/NC(=S)N/N=C/c2ccccc2O)coc2ccccc12 — inhibition (potato tyrosinase; inhibitor; 50 µM, 0 to 20 min, together with: L-DOPA; reference: control): < 10%
CC(=O)c1cnc(N)nc1N1CC[C@H]1c1nn2ccc(Cl)c2c(=O)n1-c1ccccc1 — inhibition (CACNA1H; ion current, inhibitor; 3 µM): < 10%
CSc1nc(N)c2c(F)c(C#N)c(F)c(F)c2n1 — inhibition (CDC25B; enzyme activity, inhibitor, fluorescence; 20 µg/mL): 55.1%
O=C(Nc1nc2ccccc2n1CCN1CCOCC1)c1cccc([N+](=O)[O-])c1 — inhibition (Interleukin-1 receptor-associated kinase 1 (IRAK1, Homo sapiens, UniProt P51617); enzyme activity, inhibitor; 10 µM): 100%
OC[C@H]1O[C@@H](Sc2ccccc2)[C@H](O)[C@@H](O)[C@@H]1O — inhibition (Sodium/glucose cotransporter 2 (SLC5A2, Homo sapiens, UniProt P31639); transporter uptake, inhibitor, radiometric; CHO; 10 µM): 66.7%
CCNC(=O)Nc1ccc(OCCCOc2ccc(NC(=O)NCC)cc2)cc1 — inhibition (Transcription antitermination protein NusB, with NusE (nusB, Bacillus subtilis, UniProt P54520); protein-protein interaction, inhibitor, competitive ELISA; 25 µM, 15 min preincubation, 37 °C, together with: 200 nM GST-NusE): 59%
COc1cc(-c2nc(SCc3cn(CC(=O)NC(=O)Nc4ccccn4)nn3)nc(Nc3ccc(C)cc3)c2C#N)cc(OC)c1OC — inhibition (KDM1A; enzyme activity, inhibitor, fluorescence; 1 µM): 89.2%
CCC(NC(=O)C(CC(C)C)NC(=O)NCc1ccccc1)C(=O)C(=O)NCc1cc(OC)cc(OC)c1 (stereo not shown) — inhibition (Calpain-1 catalytic subunit (Capn1, Mus musculus, UniProt O35350); brain enzyme activity; mouse, controlled cortical impact TBI, brain; intraperitoneal, 10 mg/kg, 24 h after TBI): ~40%
COc1cc(C(=O)NS(=O)(=O)c2ccc(C(F)(F)F)cc2)ccc1Cc1cn(C)c2ccc(NC(=O)OC3CCCC3)cc12 — inhibition (Tumor necrosis factor receptor superfamily member 1A (Homo sapiens, UniProt P19438); NF-κB reporter gene, luciferase reporter; HEK293 cells; up to 250 nM, together with: TNF 10 ng/mL): 35 to 42%
Cn1c2ccccc2c2cc(CNCCCn3ccnc3)ccc21 — inhibition (D(3) dopamine receptor (DRD3, Homo sapiens, UniProt P35462); cell-free assay, inhibitor; 10 µM): 63.8%
CC(=O)C12NC(C)(C)CC1(C)C(=O)C1=C2c2c(c3c4n2C(C)(C)CC2=C4C4(CC(C)(C)NC(C)(C4)C2=O)CC3(C)C)C(=O)C(C)(C)N1 (single isomer, unassigned; (-)) — inhibition (Voltage-dependent N-type calcium channel subunit alpha-1B (Homo sapiens, UniProt Q00975); ion current, inhibitor, patch clamp; HEK-293T; 10 µM): 8.63%
O=C(CSc1nc2ccccc2[nH]1)N/N=C/c1cc2c(s1)CCCC2 — inhibition (1-deoxy-D-xylulose-5-phosphate synthase (dxs, Deinococcus radiodurans, UniProt Q9RUB5); enzyme activity, inhibitor; 120 µM): 13%
O=C(O)c1cc(S(=O)(=O)Nc2ccc(Br)cc2)ccc1Cl — inhibition (Ectonucleoside triphosphate diphosphohydrolase 1; enzyme activity, inhibitor, absorbance; 100 µM): 3%
O=C(O[C@@H]1Cc2c(O)cc(O)cc2O[C@@H]1c1ccc(O)cc1)c1cc(O)c(O)c(O)c1 — inhibition (Si; enzyme activity, inhibitor; rat intestinal brush border vesicles; 10 µM): 83.5%
CC(C)CCC[C@@H](C)[C@H]1CC[C@H]2[C@@H]3CC=C4C[C@@H](OS(=O)(=O)O)CC[C@]4(C)[C@H]3CC[C@]12C — inhibition (Coagulation factor IX (F9, Homo sapiens, UniProt P00740); inhibitor, chromogenic substrate; concentration not given): no inhibition
O=C(CCc1cccc(Cl)c1)c1nc2ccccc2[nH]1 — inhibition (Cathepsin K (CTSK, Homo sapiens, UniProt P43235); enzyme activity; up to 100 µM, together with: Z-Phe-Arg-AMC): inactive
COCCOCCSc1nc(N)c2c(F)c(C#N)c(F)c(F)c2n1 — inhibition (CDC25B; enzyme activity, inhibitor, fluorescence; 20 µg/mL): 3.3%
O=[N+]([O-])c1cccc(S(=O)(=O)NC[C@@H](O)[C@@H]2CCc3cc(F)ccc3O2)c1 — inhibition (Prostaglandin G/H synthase 1 (PTGS1, Ovis aries, UniProt P05979); enzyme activity, inhibitor, absorbance; 200 µM): 71.1%
COc1ccc(NS(=O)(=O)c2cccc(/C=C/C(=O)NO)c2)cc1 — inhibition (Protein deacetylase HDAC6 (HDAC6, Homo sapiens, UniProt Q9UBN7); enzyme activity, inhibitor, fluorescence; 5 µM): 100%
N#Cc1c(F)c(F)c2nc(SCc3ccccc3)nc(N)c2c1F — inhibition (CDC25B; enzyme activity, inhibitor, fluorescence; 20 µg/mL): 96.3%
COc1cc(C(=O)NC2CCC(N3CCN(CC4CCC5(CCCC5)C4)CC3)CC2)c(F)cc1Nc1ncc2c(n1)N(C1CCCC1(F)F)CC(F)(F)C(=O)N2C (stereo not shown) — inhibition (Tyrosine-protein kinase FRK (FRK, Homo sapiens, UniProt P42685); cell-free assay, TR-FRET; 10 µM): 6.49%

Repeated from above:
C[Si]1(C[C@H](CN)CC(=O)O)CCCC1 — inhibition (Voltage-dependent calcium channel subunit alpha-2/delta-1 (Rattus norvegicus, UniProt P54290); [3H]gabapentin binding; rat cerebral cortex membranes; 6.25 µM, together with: [3H]gabapentin 20 nM): 68%
OC[C@H]1O[C@@H](Sc2ccccc2)[C@H](O)[C@@H](O)[C@@H]1O — inhibition (Sodium/glucose cotransporter 2 (SLC5A2, Homo sapiens, UniProt P31639); transporter uptake, inhibitor, radiometric; CHO; 10 µM): 66.7%
O=C(CSc1nc2ccccc2[nH]1)N/N=C/c1cc2c(s1)CCCC2 — inhibition (1-deoxy-D-xylulose-5-phosphate synthase (dxs, Deinococcus radiodurans, UniProt Q9RUB5); enzyme activity, inhibitor; 120 µM): 13%
O=C(O)c1cc(S(=O)(=O)Nc2ccc(Br)cc2)ccc1Cl — inhibition (Ectonucleoside triphosphate diphosphohydrolase 1; enzyme activity, inhibitor, absorbance; 100 µM): 3%
O=C(Nc1ccc(Cl)cc1)c1cccc(S(=O)(=O)NC2CC2)c1 — inhibition (Ectonucleoside triphosphate diphosphohydrolase 1; enzyme activity, inhibitor, absorbance; 100 µM): 5%
COCCSc1nc(N)c2c(F)c(F)c(C#N)c(F)c2n1 — inhibition (CDC25B; enzyme activity, inhibitor, fluorescence; 20 µg/mL): 78%
